# Experimental data pooled from the literature.
# Lines come from different studies, so protocols differ. ± gives the spread as reported.
Compound,test,system,setting,half-life
CC(C)[N+](C)(CCOC(=O)C1c2ccccc2Oc2ccccc21)C(C)C,,CD-1 mouse whole blood,5 µM,0.951 h
N[C@@H](CC(=O)O)C(=O)OC(C(=O)O)c1ccccc1[N+](=O)[O-].O=C(O)C(F)(F)F (mixture of isomers),"hydrolysis, 1H NMR","aqueous citrate-ammonium sulfate, 12.5% DMSO-d6","pH 4.2, room temperature, dark, isomer A",16.9 ± 0.4 h
NC(CCC(c1ccccc1)(c1ccccc1)c1ccccc1)C(=O)O (racemic),,,pH 1,stable
N#C/C(=C\c1ccccc1)c1cnccn1,,,pH 7.4,0.12 h
O=Cc1cc2ccccc2cc1C=O,"reactivity with N-α-acetyl-lysine, HPLC-MS",BBS buffer with acetonitrile,"1 mM, pH 10.2",< 0.0167 h
CC1=NN(/C(=N/c2nnc(C)s2)Nc2ccc(C)c(C)c2)C(c2cc(F)c(F)c(F)c2)S1 (stereo not drawn),plasma stability,mouse plasma,,0.418 h
N#Cc1cccc(-c2ccc3ncc(-c4cc(F)cc(F)c4)c(N4CCC(N)CC4)c3c2)c1O,,"healthy male, plasma total radioactivity","oral, 20 mg, geometric mean",31 h
CCCCCCCCCC(=O)N[C@@H](Cc1c[nH]c2ccccc12)C(=O)N[C@H](CC(N)=O)C(=O)N[C@@H](CC(=O)O)C(=O)N[C@@H]1C(=O)NCC(=O)N[C@@H](CCCN)C(=O)N[C@@H](CC(=O)O)C(=O)N[C@H](C)C(=O)N[C@@H](CC(=O)O)C(=O)NCC(=O)N[C@H](CO)C(=O)N[C@@H]([C@H](C)CC(=O)O)C(=O)N[C@@H](CC(=O)c2ccccc2N)C(=O)O[C@@H]1C,,mouse plasma,"1 µM, up to 240 min, pH 7.4, 37 °C",> 4 h
CCCCCCCCCCCCCCCC(=O)N[C@@H](CCC(=O)NCCCC[C@@H]1NC(=O)[C@H]([C@@H](C)CC)NC(=O)[C@@H](NC(=O)[C@@H]2CCCN2C(=O)[C@H](Cc2ccccc2)NC(=O)[C@H](Cc2c[nH]cn2)NC(=O)[C@@H](NC(=O)[C@H](CC(=O)O)NC(=O)CC(C)C)[C@@H](C)O)CSSC[C@@H](C(=O)N[C@@H](CCCCN)C(N)=O)NC(=O)CNC(=O)[C@H](CCCCN)NC(=O)[C@H](CO)NC(=O)[C@H](CCCNC(=N)N)NC(=O)[C@@H]2CCCN2C(=O)[C@H](CCC(=O)O)NC(=O)[C@H](Cc2ccccc2)NC1=O)C(=O)O,,"healthy volunteers, plasma","subcutaneous, 10 mg single, lyophilised formulation",19.6 ± 5.22 h
NCc1cc2c(cc1F)C(=O)N(C1CCC(=O)NC1=O)C2 (stereo not drawn),,"male Göttingen minipig, whole blood",,0.258 h
OCc1ccc(-c2nn(Cc3ccccc3)c3ccccc23)o1,,mouse liver microsomes,together with: NADPH and UDPGA,< 0.0833 h
CCCCCN(C)CCC(O)(P(=O)(O)O)P(=O)(O)OP(=O)(O)OC[C@H]1O[C@@H](n2ccc(N)nc2=O)C(F)(F)[C@@H]1O (stereo partly drawn),hydrolysis,HEPES buffer,"pH 7.4, 37 °C",7.7 h
O=c1c(-c2ccc(O)cc2)coc2cc(O)ccc12,substrate depletion,phenobarbital/β-naphthoflavone-induced rat liver microsomes,"1 µM, pH 7.4, 37 °C, together with: NADPH",0.0975 h
CCCCC[C@H](O)CC[C@@H]1[C@H]2Cc3cccc(OCC(=O)O)c3C[C@H]2C[C@H]1O,LC-MS/MS,"Japanese PAH patients, plasma","inhaled, 54 µg, body weight ≥56.7 kg, geometric mean",0.67 h
Ic1nccs1,,"PBS with glutathione, 5% acetonitrile",pH 7.4,0.9 h
CC(=O)O[C@H]1C(=O)[C@@]2(C)[C@H]([C@H](OC(=O)c3ccccc3)[C@]3(O)C[C@H](OC(=O)[C@H](OC(=O)OCc4cc(C(=O)O)ccc4OP(=O)(O)O)[C@@H](NC(=O)c4ccccc4)c4ccccc4)C(C)=C1C3(C)C)[C@]1(OC(C)=O)CO[C@@H]1C[C@@H]2O,,simulated gastric fluid,"10 µM, 2 h incubation, pH 1.2",> 2 h
O=C(COc1ccc(N2C(=O)[C@@H]3[C@@H]4C=C[C@@H]([C@H]5C[C@@H]45)[C@@H]3C2=O)cc1)c1cc(Cl)cc(Cl)c1,,CD-1 mouse plasma,"2 µM, 37 °C",> 24 h
Cc1ccc2[nH]c(=S)n(Cc3cccnc3)c(=O)c2c1,plasma stability,human plasma,,> 6.22 h
Cc1ccc(OCCN)cc1C(=O)N[C@H](C)c1cccc(-c2ccsc2)c1,,mouse liver microsomes,1 µM,> 0.833 h
O=C(O)c1cc(O)c(O)c(O)c1,LC-MS/MS,"male Ross broilers, serum","intravenous, 0.49 mg/kg BW",1.18 ± 1.17 h
Cc1cccc(CNC(=O)c2cn(CCNC(=O)c3ccccc3Sc3c([N+](=O)[O-])ncn3C)c3cc4c(cc3c2=O)OCO4)n1,"blood stability, LC-MS/MS",CD-1 mouse whole blood,"1 µM, 37 °C",4.65 h
N[C@@H](CC(=O)N1CCc2c(nc(C(F)(F)F)nc2C(F)(F)F)C1)CN1CC(F)(F)CCC1=O,,"healthy Korean adults, fasted, plasma","oral, 50 mg single dose, separate tablets, together with: enavogliflozin 0.3 mg",18 ± 1.75 h
C[C@H](NC(=O)/C(C#N)=C/c1cccc(Br)n1)c1ccccc1,LC-MS/MS,"patients, plasma","oral, 2 mg/kg, cycle 1 day 1",2.8 h
COc1ccc(-n2nc(C(=O)NC(=O)OCc3cc(C(=O)O)ccc3OP(=O)(O)O)c3c2C(=O)N(c2ccc(N4CCCCC4=O)cc2)CC3)cc1,,HBSS,"10 µM, 2 h incubation, pH 6.5",> 2 h
Oc1ccc([C@@H](O)c2cc(-c3ncnc4cc(N5CCOCC5)ccc34)c(F)cc2Cl)nn1,geometric mean,"healthy volunteers, plasma","oral, 100 mg, high-fat fed tablet",3.44 h
Cc1c(C)n(Cc2cccc(OC(C)(C)C(=O)O)c2)c2ccc(C(=O)N[C@@H](C)c3ccc(C(C)(C)C)cc3)cc12,,mouse liver microsomes,"1 µM, together with: microsomes 1 mg/mL",> 1 h
NC(=O)CC[C@@H]1NC(=O)[C@H](Cc2ccccc2)NC(=O)[C@H](Cc2ccc(O)cc2)NC(=O)CCSSC[C@@H](C(=O)N2CCC[C@H]2C(=O)N[C@H](CCCN=C(N)N)C(=O)NCC(N)=O)NC(=O)[C@H](CC(N)=O)NC1=O,,"mild haemophilia A patients and carriers, plasma","intravenous infusion over 30 min, 0.3 µg/kg, mean, noncompartmental",1.8 h
C[C@H]1CN(C(=O)CC#N)[C@]12CCN(c1ncnc3[nH]ccc13)C2,,"healthy Japanese males, plasma","oral, 5 mg single dose",2.7 h
Cc1noc(C)c1-c1ccc2nc(-c3cnn(CC(C)(C)O)c3)nc(N3CCOC[C@@H]3c3ccccc3)c2c1,,human liver microsomes,,0.55 h
O=C1CC[C@H](N2Cc3cc(N4CCN(CC5CCN(c6ccc([C@@H]7c8ccc(O)cc8CC[C@@H]7c7ccccc7)cc6)CC5)CC4)ccc3C2=O)C(=O)N1,,SD rat liver microsomes,"1 µM, pH 7.4",0.796 h
O=c1c(-c2ccc(O)cc2)coc2cc(O)cc(O)c12,substrate depletion,phenobarbital/β-naphthoflavone-induced rat liver microsomes,"1 µM, pH 7.4, 37 °C, together with: NADPH",0.0775 h
COc1cccc2c1OCC(C(=O)Nc1ccc3c(c1)CN(C1CCC(=O)NC1=O)C3=O)=C2 (stereo not drawn),metabolic stability,liver microsomes,2 µM,> 6 h
COc1ccc([C@@H](O)c2cc(-c3ncnc4cc(N5CCOCC5)ccc34)c(F)cc2Cl)nn1,geometric mean,"healthy volunteers, plasma","oral, 100 mg, fasted tablet",5.4 h
COc1ccc2[nH]c([S+]([O-])Cc3ncc(C)c(OC)c3C)nc2c1 (stereo not drawn),,"healthy Chinese volunteers, plasma","oral, 20 mg, enteric-coated tablets, all CYP2C19 genotypes",1.33 ± 0.94 h
C=C1CN2CCC[C@@]2(COc2nc(N3CCN(C(=O)/C=C/c4cccc5c4CNCC5)C[C@@H]3C)c3cc(Cl)c(-c4nc(N)cc(C)c4C(F)(F)F)c(F)c3n2)C1,,,"1 µM, pH 7.4, together with: 5 mM cysteine",6.95 h
COC(=O)[C@H](N)CSN=O,,PBS,"10 µM, pH 6.99, room temperature, dark",0.757 ± 0.085 h
Cc1c(C(=O)O)ccc2c3n(nc12)[C@@H]1[C@H](C3)N(CC2CC2)[C@@]2(C(=O)Nc3cc(Cl)ccc32)[C@H]1c1cccc(Cl)c1F,,cancer patients,"oral, 45 mg every 3 weeks",42 h
O=C1Nc2c(C(F)(F)F)cccc2[C@@]1(c1ccc(O)cc1)N1CCC(F)(F)C1,,simulated gastric fluid with pepsin,"100 µM, pH 1.2, 37 °C",0.167 to 1.28 h
O=C(Oc1coc(CSc2ncccn2)cc1=O)c1ccc([N+](=O)[O-])cc1,,mouse plasma,4 °C,1.28 h
C=CC(=O)NC1CCN(c2ncc3ncnc(Nc4ccc(Oc5ccc6c(c5)ncn6C)c(C)c4)c3n2)CC1,,healthy men,"oral, 60 mg single dose, together with: carbamazepine",23.9 h
O=C(Nc1ccc2c(c1)OCO2)C(F)F,,PBS with 10% acetonitrile,"250 µM, pH 7.4, together with: GSH 5 mM",≥ 240 h
CN(C)c1ccc(Nc2nc(-c3ccncc3)nc3c2CC(N)CC3)cc1 (stereo not drawn),,mouse liver microsomes,"4.6 µM, pH 7.4",> 1 h

# Repeated from above:
Compound,test,system,setting,half-life
Cc1noc(C)c1-c1ccc2nc(-c3cnn(CC(C)(C)O)c3)nc(N3CCOC[C@@H]3c3ccccc3)c2c1,,human liver microsomes,,0.55 h
COc1ccc(-n2nc(C(=O)NC(=O)OCc3cc(C(=O)O)ccc3OP(=O)(O)O)c3c2C(=O)N(c2ccc(N4CCCCC4=O)cc2)CC3)cc1,,HBSS,"10 µM, 2 h incubation, pH 6.5",> 2 h
Cc1cccc(CNC(=O)c2cn(CCNC(=O)c3ccccc3Sc3c([N+](=O)[O-])ncn3C)c3cc4c(cc3c2=O)OCO4)n1,"blood stability, LC-MS/MS",CD-1 mouse whole blood,"1 µM, 37 °C",4.65 h
Ic1nccs1,,"PBS with glutathione, 5% acetonitrile",pH 7.4,0.9 h
CN(C)c1ccc(Nc2nc(-c3ccncc3)nc3c2CC(N)CC3)cc1 (stereo not drawn),,mouse liver microsomes,"4.6 µM, pH 7.4",> 1 h
